Experimental data gathered from unrelated publications.
Compare with care: the assays were run in different laboratories. ± gives the spread as reported.
Polyprotein P1234 nsP2 protease domain: Polyprotein P1234, nsP2 protease domain (Chikungunya virus, UniProt Q5XXP4)
Chain of UniProt Q5XXP4 (whole entry, looked up): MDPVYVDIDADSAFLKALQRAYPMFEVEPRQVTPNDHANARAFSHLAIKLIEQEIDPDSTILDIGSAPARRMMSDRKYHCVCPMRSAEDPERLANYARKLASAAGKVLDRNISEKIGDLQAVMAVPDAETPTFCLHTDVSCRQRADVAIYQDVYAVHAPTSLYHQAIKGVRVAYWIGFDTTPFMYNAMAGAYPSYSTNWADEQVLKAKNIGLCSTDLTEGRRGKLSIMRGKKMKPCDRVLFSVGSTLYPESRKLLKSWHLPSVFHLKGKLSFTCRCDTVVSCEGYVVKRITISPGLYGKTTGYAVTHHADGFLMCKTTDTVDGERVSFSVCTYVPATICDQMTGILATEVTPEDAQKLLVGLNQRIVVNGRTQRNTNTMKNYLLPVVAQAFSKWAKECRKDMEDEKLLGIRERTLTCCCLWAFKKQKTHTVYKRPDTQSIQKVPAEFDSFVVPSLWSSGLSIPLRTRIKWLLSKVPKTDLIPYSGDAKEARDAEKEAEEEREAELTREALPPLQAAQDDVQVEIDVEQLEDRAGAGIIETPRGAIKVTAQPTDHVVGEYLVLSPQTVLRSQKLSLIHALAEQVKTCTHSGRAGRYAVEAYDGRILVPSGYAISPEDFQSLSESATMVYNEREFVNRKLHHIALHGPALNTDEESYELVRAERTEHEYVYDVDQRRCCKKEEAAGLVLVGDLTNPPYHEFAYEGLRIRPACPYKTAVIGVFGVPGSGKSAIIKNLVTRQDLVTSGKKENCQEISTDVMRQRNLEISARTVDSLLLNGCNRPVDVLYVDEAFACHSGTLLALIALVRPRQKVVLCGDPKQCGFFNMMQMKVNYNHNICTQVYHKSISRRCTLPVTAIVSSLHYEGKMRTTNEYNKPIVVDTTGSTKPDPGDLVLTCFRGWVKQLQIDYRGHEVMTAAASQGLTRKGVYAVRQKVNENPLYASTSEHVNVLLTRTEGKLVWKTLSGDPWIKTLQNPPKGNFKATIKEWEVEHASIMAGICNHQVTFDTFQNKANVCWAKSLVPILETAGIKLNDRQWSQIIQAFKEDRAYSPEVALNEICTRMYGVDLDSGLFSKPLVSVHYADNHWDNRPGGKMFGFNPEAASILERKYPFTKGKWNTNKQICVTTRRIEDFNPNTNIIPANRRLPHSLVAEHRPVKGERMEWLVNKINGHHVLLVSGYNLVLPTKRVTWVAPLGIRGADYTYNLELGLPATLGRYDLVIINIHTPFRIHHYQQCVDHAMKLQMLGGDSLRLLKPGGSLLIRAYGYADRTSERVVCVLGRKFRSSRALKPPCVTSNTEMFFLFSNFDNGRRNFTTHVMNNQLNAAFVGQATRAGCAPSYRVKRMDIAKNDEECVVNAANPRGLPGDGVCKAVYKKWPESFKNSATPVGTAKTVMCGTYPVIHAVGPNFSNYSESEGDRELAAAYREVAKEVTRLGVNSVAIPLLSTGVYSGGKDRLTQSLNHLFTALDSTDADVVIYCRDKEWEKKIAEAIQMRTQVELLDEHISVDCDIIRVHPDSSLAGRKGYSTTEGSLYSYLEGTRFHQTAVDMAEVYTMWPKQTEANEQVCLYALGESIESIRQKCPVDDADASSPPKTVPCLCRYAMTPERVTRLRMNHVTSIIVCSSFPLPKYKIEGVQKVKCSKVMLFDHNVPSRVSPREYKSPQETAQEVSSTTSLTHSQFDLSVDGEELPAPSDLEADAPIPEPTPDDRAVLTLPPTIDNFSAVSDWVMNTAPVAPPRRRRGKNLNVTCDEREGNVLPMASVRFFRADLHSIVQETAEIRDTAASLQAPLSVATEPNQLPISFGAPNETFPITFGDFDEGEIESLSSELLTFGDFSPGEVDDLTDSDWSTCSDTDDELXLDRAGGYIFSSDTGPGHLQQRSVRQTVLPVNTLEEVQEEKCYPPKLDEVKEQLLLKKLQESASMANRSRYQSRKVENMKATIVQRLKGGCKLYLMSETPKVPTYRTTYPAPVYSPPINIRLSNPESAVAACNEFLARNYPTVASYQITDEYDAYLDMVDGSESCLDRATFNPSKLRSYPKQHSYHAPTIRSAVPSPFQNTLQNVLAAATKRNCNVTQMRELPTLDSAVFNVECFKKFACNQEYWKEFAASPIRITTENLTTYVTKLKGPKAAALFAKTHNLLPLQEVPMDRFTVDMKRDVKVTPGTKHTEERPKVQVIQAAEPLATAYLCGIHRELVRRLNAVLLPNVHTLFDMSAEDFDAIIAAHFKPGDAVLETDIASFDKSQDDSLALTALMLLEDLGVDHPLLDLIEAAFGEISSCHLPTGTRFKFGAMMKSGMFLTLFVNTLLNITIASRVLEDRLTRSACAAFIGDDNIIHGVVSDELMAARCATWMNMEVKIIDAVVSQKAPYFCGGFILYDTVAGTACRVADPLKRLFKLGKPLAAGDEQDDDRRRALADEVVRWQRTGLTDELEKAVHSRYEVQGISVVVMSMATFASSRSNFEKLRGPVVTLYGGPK
OPG149: Resolvase OPG149 (OPG149, Monkeypox virus, UniProt A0A7H0DNC1)
Chain of UniProt A0A7H0DNC1 (whole entry, looked up): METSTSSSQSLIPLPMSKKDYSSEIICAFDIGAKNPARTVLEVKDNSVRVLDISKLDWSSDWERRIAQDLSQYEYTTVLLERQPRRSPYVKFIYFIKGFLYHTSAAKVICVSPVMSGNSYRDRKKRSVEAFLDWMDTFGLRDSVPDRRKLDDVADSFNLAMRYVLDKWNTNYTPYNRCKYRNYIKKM
nanI: Sialidase (nanI, Clostridium perfringens, UniProt A0A0H2YQR1)
HLA class I histocompatibility antigen, A alpha chain allele A*24:02: HLA class I histocompatibility antigen, A alpha chain, allele A*24:02 (Homo sapiens, UniProt P04439)
HLA class I histocompatibility antigen, B alpha chain: HLA class I histocompatibility antigen, B alpha chain (Homo sapiens, UniProt P01889)
rep nsp13 helicase: Replicase polyprotein 1ab, nsp13 helicase (rep, Severe acute respiratory syndrome coronavirus 2, UniProt P0DTD1)
Chain of UniProt P07510 (whole entry, looked up): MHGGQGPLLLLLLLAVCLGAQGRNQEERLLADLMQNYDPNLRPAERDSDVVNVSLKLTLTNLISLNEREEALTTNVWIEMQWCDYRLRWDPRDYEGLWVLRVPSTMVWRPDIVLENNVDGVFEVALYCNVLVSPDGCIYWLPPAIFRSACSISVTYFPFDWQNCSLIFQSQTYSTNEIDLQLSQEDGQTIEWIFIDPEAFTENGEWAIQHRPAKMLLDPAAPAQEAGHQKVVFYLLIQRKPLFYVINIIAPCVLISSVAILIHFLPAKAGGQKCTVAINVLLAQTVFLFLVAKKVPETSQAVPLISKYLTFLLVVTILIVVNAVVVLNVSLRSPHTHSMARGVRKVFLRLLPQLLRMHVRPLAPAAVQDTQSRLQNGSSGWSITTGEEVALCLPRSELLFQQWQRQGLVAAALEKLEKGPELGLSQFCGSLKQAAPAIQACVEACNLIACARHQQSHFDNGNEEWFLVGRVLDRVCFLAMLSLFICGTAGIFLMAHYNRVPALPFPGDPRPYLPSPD
Chain of UniProt Q07001 (whole entry, looked up): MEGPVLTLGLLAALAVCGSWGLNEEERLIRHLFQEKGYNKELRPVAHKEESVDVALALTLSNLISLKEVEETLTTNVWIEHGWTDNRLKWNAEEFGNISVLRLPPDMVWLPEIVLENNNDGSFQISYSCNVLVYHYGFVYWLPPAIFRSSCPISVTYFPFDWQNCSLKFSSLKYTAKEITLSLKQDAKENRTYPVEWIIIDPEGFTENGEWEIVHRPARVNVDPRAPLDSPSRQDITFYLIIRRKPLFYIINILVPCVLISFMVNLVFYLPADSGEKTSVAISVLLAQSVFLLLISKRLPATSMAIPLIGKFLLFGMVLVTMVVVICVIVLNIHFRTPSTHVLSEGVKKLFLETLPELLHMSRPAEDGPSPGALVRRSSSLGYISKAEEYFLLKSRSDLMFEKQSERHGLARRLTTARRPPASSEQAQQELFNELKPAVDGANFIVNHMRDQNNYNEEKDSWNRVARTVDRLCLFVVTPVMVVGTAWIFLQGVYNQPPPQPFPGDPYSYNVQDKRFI
Chain of UniProt P02708 (whole entry, looked up): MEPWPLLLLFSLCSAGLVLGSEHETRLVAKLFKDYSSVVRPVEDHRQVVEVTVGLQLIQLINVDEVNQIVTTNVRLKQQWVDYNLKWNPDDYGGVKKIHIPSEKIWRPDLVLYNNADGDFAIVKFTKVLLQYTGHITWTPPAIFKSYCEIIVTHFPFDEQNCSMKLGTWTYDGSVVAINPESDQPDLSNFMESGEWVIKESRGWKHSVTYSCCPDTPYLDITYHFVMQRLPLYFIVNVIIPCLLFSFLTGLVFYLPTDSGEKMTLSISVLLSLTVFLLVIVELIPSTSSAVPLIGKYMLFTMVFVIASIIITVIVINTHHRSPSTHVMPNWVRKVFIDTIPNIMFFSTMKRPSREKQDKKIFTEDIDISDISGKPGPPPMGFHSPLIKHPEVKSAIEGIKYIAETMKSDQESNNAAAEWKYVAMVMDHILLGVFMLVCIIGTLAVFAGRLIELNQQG
Chain of UniProt Q9IGQ6 (whole entry, looked up): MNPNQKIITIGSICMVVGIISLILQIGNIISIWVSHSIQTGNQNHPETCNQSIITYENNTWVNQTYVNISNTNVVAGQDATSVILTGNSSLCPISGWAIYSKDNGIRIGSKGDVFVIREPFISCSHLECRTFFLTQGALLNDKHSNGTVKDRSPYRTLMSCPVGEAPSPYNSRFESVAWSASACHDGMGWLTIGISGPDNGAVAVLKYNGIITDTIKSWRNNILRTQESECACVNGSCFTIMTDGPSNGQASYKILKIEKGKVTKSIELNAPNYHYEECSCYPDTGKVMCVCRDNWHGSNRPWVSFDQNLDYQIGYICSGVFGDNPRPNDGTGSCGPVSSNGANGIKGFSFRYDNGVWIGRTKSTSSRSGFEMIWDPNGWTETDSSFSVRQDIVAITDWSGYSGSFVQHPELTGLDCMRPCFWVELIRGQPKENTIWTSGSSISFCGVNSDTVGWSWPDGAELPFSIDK
Chain of UniProt P04756 (whole entry, looked up): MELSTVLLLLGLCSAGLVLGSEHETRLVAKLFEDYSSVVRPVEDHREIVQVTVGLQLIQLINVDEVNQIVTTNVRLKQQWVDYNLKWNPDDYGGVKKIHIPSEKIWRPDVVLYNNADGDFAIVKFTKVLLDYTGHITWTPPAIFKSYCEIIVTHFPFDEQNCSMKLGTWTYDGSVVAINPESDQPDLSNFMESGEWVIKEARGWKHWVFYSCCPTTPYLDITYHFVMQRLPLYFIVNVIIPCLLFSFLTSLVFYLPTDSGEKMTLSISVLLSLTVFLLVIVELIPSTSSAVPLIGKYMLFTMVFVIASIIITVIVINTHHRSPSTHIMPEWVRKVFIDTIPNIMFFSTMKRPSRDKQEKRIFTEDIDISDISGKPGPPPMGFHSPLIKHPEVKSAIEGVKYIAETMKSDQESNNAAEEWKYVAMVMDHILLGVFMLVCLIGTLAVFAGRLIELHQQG

`CC[C@H](C)[C@H](NC(=O)[C@@H](NC(=O)[C@@H](N)Cc1ccccc1)[C@@H](C)O)C(=O)N[C@@H](CC(=O)O)C(=O)N[C@@H](Cc1ccccc1)C(=O)N[C@@H](CCCCN)C(=O)N[C@@H](CC(C)C)C(=O)N[C@@H](CCCCN)C(=O)N[C@@H](Cc1ccc(O)cc1)C(=O)O` has an IC50 of 0.021 µM (HLA class I histocompatibility antigen, A alpha chain, allele A*26:01 (Homo sapiens, UniProt P04439); biochemical).
With `C=CS(=O)(=O)CCC(=O)Nc1cc2oc(=O)n(C)c2cc1F` the IC50 was 11 ± 2 µM (Polyprotein P1234 nsP2 protease domain; protease activity, inhibitor, FRET; 90 min, 30 min preincubation).
`COc1cc2c3cc1Oc1cc(ccc1O)C[C@@H]1c4c(cc(OC)c(O)c4Oc4ccc(cc4)C[C@@H]3N(C)CC2)CC[N+]1(C)C` has an IC50 of 0.109 µM (Chrnd/Chrna1/Chrne (Mus musculus, UniProt P02716+P04756+P20782); endplate current amplitude, two-electrode voltage clamp; mouse given myasthenia patient IgG 4 d, mouse hemidiaphragm; membrane potential -80 mV, added: paraoxon).
`N#CC(=Cc1cccc2[nH]nc(C(=O)O)c12)C(=O)NC1CCCC1` gave an IC50 of over 200 µM (Polyprotein P1234 nsP2 protease domain; protease activity, inhibitor, FRET; 90 min, 30 min preincubation).
For `COc1cc(Nc2ncc(F)c(Nc3ccc4c(n3)NC(=O)C(C)(C)O4)n2)cc(OC)c1OC`, the IC50 was over 10 µM (CHRNA1/CHRNG/CHRND (Homo sapiens, UniProt P02708+P07510+Q07001)).
The IC50 of `O=C1c2ccccc2C(c2ccccc2F)C(=O)N1O` (centres unmarked) is reported as 1.33 µM (OPG149).
With `CC(C)[C@H](N)C(=O)N[C@H](C(=O)N[C@@H](CC(=O)O)C(=O)N[C@H](C(=O)N[C@@H](CC(N)=O)C(=O)N[C@@H](CCCCN)C(=O)N[C@@H](Cc1ccccc1)C(=O)N[C@@H](CC(=O)O)C(=O)N[C@@H](CC(N)=O)C(=O)N[C@@H](Cc1ccc(O)cc1)C(=O)O)[C@@H](C)O)[C@@H](C)O` the IC50 was 0.256 µM (HLA class I histocompatibility antigen, A alpha chain, allele A*30:02 (Homo sapiens, UniProt P04439); biochemical).
`CC(C)(C)CN[C@H]1[C@H]([C@H](O)[C@H](O)CO)OC(C(=O)O)=C[C@@H]1O` has an IC50 of 24 µM (nanI; enzyme activity, inhibitor).
`CC[C@H](C)[C@H](NC(=O)[C@H](CC(N)=O)NC(=O)CNC(=O)[C@H](CC(=O)O)NC(=O)[C@H](Cc1ccc(O)cc1)NC(=O)[C@H](Cc1ccc(O)cc1)NC(=O)[C@@H](N)CCCNC(=N)N)C(=O)N[C@@H](Cc1ccc(O)cc1)C(=O)N[C@@H](CC(=O)O)C(=O)N[C@@H](CC(C)C)C(=O)O` has an IC50 of 0.121 µM (HLA class I histocompatibility antigen, A alpha chain allele A*24:02; biochemical).
For `O=C(O)C(=O)C[C@@H](O)[C@@H](O)[C@H](O)[C@H](O)CO`, the IC50 was 0.00095 µM (Spike glycoprotein, with ACE2 (Severe acute respiratory syndrome coronavirus 2, UniProt P0DTC2); binding to human ACE2, inhibitor; SARS-CoV-2).
With `CC(C)(C)NC(=O)N[C@H]1[C@H]([C@H](O)[C@H](O)CO)OC(C(=O)O)=C[C@@H]1O` the IC50 was over 500 µM (nanI; enzyme activity, inhibitor).
`CCC(C(=O)Nc1ccccc1C)n1cccc2nc([S+]([O-])Cc3ccc(F)cc3)nc1-2` (centres unmarked) gave an IC50 of over 100 µM (Replicase polyprotein 1ab, papain-like protease (rep, Middle East respiratory syndrome-related coronavirus, UniProt K9N7C7); enzyme activity, inhibitor).
For `N#CC(=Cc1cc(Br)c2c(c1)OCCCO2)C(N)=O`, the IC50 was over 200 µM (Polyprotein P1234 nsP2 protease domain; protease activity, inhibitor, FRET; 90 min, 30 min preincubation).
With `CCC(C(=O)Nc1cc(NC2CCNC2)ccc1C)n1cc(Cl)cc2nc(SCc3ccc(F)cc3)nc1-2` (centres unmarked) the IC50 was 0.109 ± 0.035 µM (Replicase polyprotein 1ab, papain-like protease (rep, Severe acute respiratory syndrome-related coronavirus, UniProt P0C6X7); enzyme activity).
`CCC(CC)[C@H](NC(C)=O)[C@@H]1[C@H](O)[C@@H](C(=O)O)C[C@H]1N=C(N)N` gave an IC50 of 0.00037 µM (neuraminidase (Influenza A virus, UniProt A9YLD5)).
`CC[C@H](C)[C@H](NC(=O)[C@H](Cc1c[nH]c2ccccc12)NC(=O)[C@@H](N)C(C)C)C(=O)N[C@@H](CC(N)=O)C(=O)N[C@@H](CC(N)=O)C(=O)N[C@@H](CO)C(=O)N[C@@H](Cc1c[nH]c2ccccc12)C(=O)N[C@@H](CCCCN)C(=O)N[C@@H](Cc1ccccc1)C(=O)O` has an IC50 of 0.0064 µM (HLA class I histocompatibility antigen, A alpha chain allele A*24:02; biochemical).
The IC50 of `O=C(CCCCCCCCCCOc1ccccc1)CP(=O)(O)O` is reported as 200 µM (Glycerol-3-phosphate acyltransferase 3 (plsY3, Bacillus anthracis, UniProt Q81Y92); inhibitor).
`CCC(C(=O)Nc1ccccc1OC)n1c(SCc2ccc(F)cc2)nc2ncccc21` (centres unmarked) gave an IC50 of over 20 µM (Replicase polyprotein 1ab, papain-like protease (rep, Severe acute respiratory syndrome-related coronavirus, UniProt P0C6X7); enzyme activity).
`CC(C)CCC(=O)N[C@H]1[C@H]([C@H](O)[C@H](O)CO)OC(C(=O)O)=C[C@@H]1O` gave an IC50 of over 500 µM (nanI; enzyme activity, inhibitor).
For `oseltamivir carboxylate`, the IC50 was 0.00055 ± 0.00018 µM (Neuraminidase (Influenza A virus, UniProt C7FH46); enzyme activity, inhibitor; A(H1N1)pdm09; mean over viruses).
`CCCC(C(=O)Nc1cc(NC2CNC2)ccc1C)n1cccc2nc(SCc3ccc(F)cc3)nc1-2` (centres unmarked) has an IC50 of 0.731 ± 0.153 µM (Replicase polyprotein 1ab, papain-like protease (rep, Severe acute respiratory syndrome-related coronavirus, UniProt P0C6X7); enzyme activity).
The IC50 of `Cn1cnc(Cn2c(=O)[nH]/c(=N\c3cc4cn(C)nc4cc3Cl)n(Cc3cc(F)c(F)cc3F)c2=O)n1` is reported as over 100 µM (Cytochrome P450 1A2 (CYP1A2, Homo sapiens, UniProt P05177); enzyme activity, inhibitor; human liver microsomes; 30 min preincubation, pH 7.4, preincubation with NADPH, added: phenacetin 90 µM).
The responding donors of `CPFGEVFNATRFASV` is reported as 9% (human CD4 T cells; AIM; peptide).
The IC50 of `CC(C)C[C@H](NC(=O)[C@H](CCC(=O)O)NC(=O)[C@H](CCCNC(=N)N)NC(=O)[C@@H](NC(=O)[C@@H](NC(=O)CNC(=O)[C@H](CO)NC(=O)[C@H](CO)NC(=O)[C@@H](N)Cc1c[nH]cn1)C(C)C)[C@@H](C)O)C(=O)O` is reported as 7.76 µM (HLA class I histocompatibility antigen, B alpha chain; binding, competitor).
With `CCOc1cc(C(=O)NCC=CS(C)(=O)=O)on1` the IC50 was over 200 µM (Polyprotein P1234 nsP2 protease domain; protease activity, inhibitor, FRET; 90 min, 30 min preincubation).
The IC50 of `CCCC(C(=O)Nc1cc(NC2CCNCC2)ccc1C)n1cccc2nc(SCc3ccc(F)cc3)nc1-2` (centres unmarked) is reported as over 100 µM (Replicase polyprotein 1ab, papain-like protease (rep, Middle East respiratory syndrome-related coronavirus, UniProt K9N7C7); enzyme activity, inhibitor).
`C=CS(=O)(=O)CCC(=O)Nc1ccn(-c2ccc(F)cn2)n1` has an IC50 of 9.1 ± 0.6 µM (Polyprotein P1234 nsP2 protease domain; protease activity, inhibitor, FRET; 90 min, 30 min preincubation).
`CCC(C(=O)Nc1cc(NC2CCOCC2)ccc1C)n1cc(F)cc2nc(SCc3ccc(F)cc3)nc1-2` (centres unmarked) gave an IC50 of 0.809 ± 0.052 µM (Replicase polyprotein 1ab, papain-like protease (rep, Severe acute respiratory syndrome-related coronavirus, UniProt P0C6X7); enzyme activity).
`CC[C@H](C)[C@H](NC(=O)[C@@H](NC(=O)[C@H](Cc1ccccc1)NC(=O)[C@H](CCCNC(=N)N)NC(=O)[C@H](CC(N)=O)NC(=O)[C@@H]1CCCN1C(=O)[C@H](CC(N)=O)NC(=O)[C@H](CCCCN)NC(=O)[C@H](C)N)C(C)C)C(=O)O` gave an IC50 of 0.291 µM (HLA class I histocompatibility antigen, B alpha chain; biochemical).
For `C=CC(=O)N1CCCC1C(C)(C)C(=O)O` (centres unmarked), the IC50 was 140 ± 111 µM (Polyprotein P1234 nsP2 protease domain; protease activity, inhibitor, FRET; 90 min, 30 min preincubation).
`CCC(C(=O)Nc1cc(NC2CCOC2)ccc1C)n1cc(F)cc2nc(SCc3ccc(F)cc3)nc1-2` (centres unmarked) gave an IC50 of over 100 µM (Replicase polyprotein 1ab, papain-like protease (rep, Middle East respiratory syndrome-related coronavirus, UniProt K9N7C7); enzyme activity, inhibitor).
`O=C(N1CCC2(CC1)C[C@H](CN1CCCCS1(=O)=O)CCO2)C1(c2cc(F)cc(F)c2)CCCC1` has an IC50 of 0.79 µM (Polyprotein P1234, nsP2 (Chikungunya virus, UniProt Q8JUX6); nsP2 ATPase activity, inhibitor, ADP-Glo).
With `COc1ccc(-c2cccc(Nc3cc(=O)n(O)c(=O)n3C)c2)cc1` the IC50 was 0.242 µM (OPG149).
For `O=C(O)c1cccc(-n2cccc2/C=N/O)c1`, the IC50 was over 150 µM (rep nsp13 helicase; helicase ATPase activity, inhibitor, Kinase-Glo luminescence).
`CCC(C(=O)Nc1ccccn1)n1cccc2nc(SCc3ccc(F)cc3)nc1-2` (centres unmarked) gave an IC50 of over 20 µM (Replicase polyprotein 1ab, papain-like protease (rep, Severe acute respiratory syndrome-related coronavirus, UniProt P0C6X7); enzyme activity).
`bavachinin` has a Kd of 34.7 µM (Spike glycoprotein (Severe acute respiratory syndrome coronavirus 2, UniProt P0DTC2); biolayer interferometry).
The IC50 of `CC(C)C[C@H](NC(=O)[C@H](CCC(=O)O)NC(=O)[C@@H](N)CO)C(=O)N1CCC[C@H]1C(=O)N[C@@H](CC(=O)O)C(=O)N[C@@H](Cc1ccccc1)C(=O)N[C@@H](C)C(=O)N[C@@H](CS)C(=O)N[C@@H](CO)C(=O)O` is reported as 3.53 µM (HLA class I histocompatibility antigen, B alpha chain, allele B*44:03 (Homo sapiens, UniProt P01889); biochemical).
The IC50 of `CCC(CC)[C@H](NC(C)=O)[C@@H]1[C@H](O)[C@@H](C(=O)O)C[C@H]1N=C(N)N` is reported as 0.00034 ± 0.00016 µM (Neuraminidase (NA, Influenza A virus, UniProt Q9IGQ6); enzyme activity, inhibitor; swine influenza A virus, H1N1).
The IC50 of `CC[C@H](C)[C@H](NC(=O)[C@H](CC(N)=O)NC(=O)[C@H](CC(N)=O)NC(=O)[C@H](Cc1ccccc1)NC(=O)[C@@H]1CCCN1C(=O)[C@@H](N)CCCCN)C(=O)N[C@@H](CC(C)C)C(=O)N[C@@H](CC(=O)O)C(=O)N[C@@H](CC(C)C)C(=O)O` is reported as 0.362 µM (HLA class I histocompatibility antigen, B alpha chain; biochemical).
With `C=CS(=O)(=O)CCC(=O)Nc1cc(OC)c2ncccc2c1` the IC50 was 8.4 ± 0.3 µM (Polyprotein P1234 nsP2 protease domain; protease activity, inhibitor, FRET; 90 min, 30 min preincubation).
`COc1ccc(/C=N\NC(=O)c2cc(O)c(O)c(O)c2)cc1COc1ccc(C(=O)OCC(C)C)cc1` gave an IC50 of 3 µM (rep nsp13 helicase; helicase ATPase activity, inhibitor, Kinase-Glo luminescence; 60 min, added: 2.5 µM ATP).

Excerpt of the above:
`COc1ccc(/C=N\NC(=O)c2cc(O)c(O)c(O)c2)cc1COc1ccc(C(=O)OCC(C)C)cc1` gave an IC50 of 3 µM (rep nsp13 helicase; helicase ATPase activity, inhibitor, Kinase-Glo luminescence; 60 min, added: 2.5 µM ATP).
With `CC(C)[C@H](N)C(=O)N[C@H](C(=O)N[C@@H](CC(=O)O)C(=O)N[C@H](C(=O)N[C@@H](CC(N)=O)C(=O)N[C@@H](CCCCN)C(=O)N[C@@H](Cc1ccccc1)C(=O)N[C@@H](CC(=O)O)C(=O)N[C@@H](CC(N)=O)C(=O)N[C@@H](Cc1ccc(O)cc1)C(=O)O)[C@@H](C)O)[C@@H](C)O` the IC50 was 0.256 µM (HLA class I histocompatibility antigen, A alpha chain, allele A*30:02 (Homo sapiens, UniProt P04439); biochemical).
For `oseltamivir carboxylate`, the IC50 was 0.00055 ± 0.00018 µM (Neuraminidase (Influenza A virus, UniProt C7FH46); enzyme activity, inhibitor; A(H1N1)pdm09; mean over viruses).
